Measurements from different studies.
Compare with care: the assays were run in different laboratories. Several values in a cell are separate wells, animals, samples, runs or records. ± marks the error that the study gave.

Compound | target | test | test system | setting | inhibition
CC(=O)N[C@H](C(=O)N[C@@H](CO)C(=O)N[C@@H](Cc1ccccc1)C(=O)N[C@H]1CCCCNC(=N)NCCCC[C@@H](C(=O)N2CCC[C@H]2C(N)=O)NC(=O)[C@H](CC(C)C)NC(=O)[C@H](CC(C)C)NC(=O)[C@H](C)NC(=O)[C@H](Cc2c[nH]c3ccccc23)NC(=O)[C@H](Cc2ccc(O)cc2)NC(=O)[C@H](CCC(=O)O)NC1=O)[C@@H](C)O | Protein Mdm4 (MDM4, Homo sapiens, UniProt O15151) | protein-protein interaction, inhibitor, TR-FRET |  | 0.1 µM | 64%
C/C=C/C(=O)Nc1ccc2nc(NCCCCCN(C)C)nc(NCCCCCCN(C)C)c2c1 | EHMT2 (Homo sapiens, UniProt Q96KQ7) | enzyme activity, inhibitor, radiometric |  | 50 µM | 55%
CC(=O)C12NC(C)(C)CC1(C)C(=O)C1=C2c2c(c3c4n2C(C)(C)CC2=C4C4(CC(C)(C)NC(C)(C4)C2=O)CC3(C)C)C(=O)C(C)(C)N1 (single isomer, unassigned; (+)) | KCNQ3 (Homo sapiens, UniProt O43525) | ion current, inhibitor, patch clamp | HEK-293T | 40 µM | 3%
COc1cc(-n2cc3cc(F)cc(C(N)=O)c3n2)cc(Cl)c1C1CC(O)(CCO)Cc2ccccc21 (stereo not drawn) | TIPARP (Homo sapiens, UniProt Q7Z3E1) | enzyme activity, inhibitor |  | 10 µM | 0.4%
C[Si](C)(C)C[C@H](CN)CC(=O)O | SLC6A3 (Homo sapiens, UniProt Q01959) | ligand displacement, radioligand |  | 250 µM | -11%
O=C(Nc1cccnc1)c1cccs1 | NMNAT1 human | enzyme activity, coupled alcohol dehydrogenase counter-screen |  | concentration not given, added: 50 µM NMN | no inhibition
CN(C)CCCCCCNc1nc(NCCCCCN(C)C)nc2ccc(NC(=O)CCl)cc12 | Histone-lysine N-methyltransferase SETDB1, triple Tudor domain (SETDB1, Homo sapiens, UniProt Q15047) |  |  | 100 µM | 114%
COc1cc(OC)c(F)c(/C=C/c2cnc3ccn(S(=O)(=O)c4cn(CCF)cn4)c3n2)c1F | FLT3 (Homo sapiens, UniProt P36888) |  |  | 100 nM | 0.1%
CCCCCCCCCCCCNC(=S)NCCCC[C@H](NC(=O)OCc1ccccc1)C(=O)N[C@@H](CC(C)C)C(=O)N[C@@H](CCCNC(=N)N)C(N)=O | SIRT1 (Homo sapiens, UniProt Q96EB6) | enzyme activity, inhibitor |  | 1 µM | 57%
Cc1ccc(CNC(=O)[C@H](CCc2ccccc2)NC(=O)[C@H](CC(=O)NCC(C)(C)C)NC(=O)CCc2cccc(F)c2)cc1 | Prothrombin (F2, Homo sapiens, UniProt P00734) | enzyme activity, inhibitor |  | 100 µM | 13%
O=C(O)CCNC(=S)NCCCC[C@H](NS(=O)(=O)c1cccc(F)c1)C(=O)N[C@@H](Cc1c[nH]c2ccccc12)C(=O)NC1CCC1 | SIRT3 (Homo sapiens, UniProt Q9NTG7) | enzyme activity, inhibitor |  | 10 µM | 2%
CCc1noc(CN(C)Cc2cn(-c3ccccc3)nc2-c2ccc(Cl)cc2)n1 | CXCR4 (Homo sapiens, UniProt P61073) | arrestin recruitment, DiscoverX arrestin |  | 30 µM | 62% and 67%
Cl.Cl.N[C@@H](C(=O)N1CCCC1)C1CCN(c2nccc3c(-c4ncc(Cl)cc4Cl)cccc23)CC1 | PADI4 (Homo sapiens, UniProt Q9UM07) | enzyme activity, inhibitor |  | 78.2 nM, added: Ca2+ 0.4 mM | 3.99% and -3.34% and -0.107%
CN(Cc1ccc(/C=C/C(=O)NO)cc1)CC12CC3CC(CC(C3)C1)C2 | human VPAC1 receptor | agonist radioligand binding |  | 0.05 µM | -9%
O=C1c2sc(-c3ccc(N4CCC(F)C4)nc3F)nc2CCN1c1cccnc1 (stereo not drawn) | AVPR2 (Homo sapiens, UniProt P30518) | ligand displacement, radioligand |  | 1 µM | -6%
O=c1cc(-c2ccccc2)oc2c(Br)c(O)c(Br)c(O)c12 | AMY2 (Sus scrofa, UniProt P00690) | enzyme activity, inhibitor |  | 50 µM, added: CNP-G3 substrate | 11.7 ± 3.47%
N#Cc1ccc(NC(=O)Nc2ccccc2O)cc1 | SRPK3 (Homo sapiens, UniProt Q9UPE1) | enzyme activity, inhibitor, FRET |  | 10 µM | 74.2%
COc1ccc2c(c1)C(CC(=O)NC(C(=O)NC(CCc1ccccc1)C(=O)NCc1ccc(C)cc1)C(C)O)CC2=O (stereo not drawn) | trypsin | enzyme activity, inhibitor |  | 100 µM | -6%
